Experimental data collected from several papers.
Each line is one published result; not all experiments were run side by side. ± gives the spread as reported.
Chain of UniProt P35462 (whole entry, looked up): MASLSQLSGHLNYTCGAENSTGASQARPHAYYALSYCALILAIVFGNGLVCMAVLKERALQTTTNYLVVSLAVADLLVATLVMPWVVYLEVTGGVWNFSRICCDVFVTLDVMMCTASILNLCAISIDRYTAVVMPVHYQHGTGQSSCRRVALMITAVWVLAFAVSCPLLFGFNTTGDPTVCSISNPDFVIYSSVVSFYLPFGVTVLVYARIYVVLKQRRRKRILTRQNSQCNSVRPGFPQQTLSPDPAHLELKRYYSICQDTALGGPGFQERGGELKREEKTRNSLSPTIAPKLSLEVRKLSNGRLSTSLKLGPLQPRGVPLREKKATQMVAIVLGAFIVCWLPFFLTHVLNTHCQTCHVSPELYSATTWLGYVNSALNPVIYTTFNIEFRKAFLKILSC

Structure (SMILES)	target or system	assay	system	conditions	scale	endpoint	value
CC(=O)NCCCC[C@@H]1NC(=O)[C@H](Cc2c[nH]c3c(C)cccc23)NC(=O)[C@H]([C@@H](C)O)NC(=O)[C@H](CC(N)=O)NC(=O)[C@@H](NC(C)=O)C(C)(C)SSC(C)(C)[C@@H](C(=O)N[C@@H](Cc2ccc(OCCN)cc2)C(=O)N[C@@H](Cc2ccc3ccccc3c2)C(=O)NC2(C(=O)N[C@@H](CCC(=O)O)C(=O)N[C@@H](CC(N)=O)C(=O)N[C@@H](Cc3cccnc3)C(=O)N(C)CC(N)=O)CCOCC2)NC1=O	–	–	plasma	up to 16 h, 37 °C	–	plasma stability	stable
O=C1NC2(CC2)COc2ncc(F)cc2[C@H]2COCCN2c2ccn3ncc1c3n2	–	–	Sprague-Dawley rat, male, spleen	oral, 2.5 mg/kg/day, 4 weeks dosing, end of recovery	–	organ-to-brain weight ratio	48.3 ± 4.69%
CCN(CC)CCOc1ccc(-c2nnn(Cc3ccc(OC)cc3)c2N)cc1	–	–	beagle dog	oral, at least 40 mg/kg	–	heart rate increase	≤ 21%
CSCC[C@H](N)C(=O)N[C@@H](C)C(=O)N[C@@H](CCCNC(=N)N)C(=O)N[C@@H](CCCNC(=N)N)C(=O)N[C@@H](CC(=O)O)C(=O)N[C@@H](CCCCN)C(=O)N[C@H](C(=O)N[C@@H](CC(=O)O)C(=O)N[C@@H](Cc1ccccc1)C(=O)N[C@@H](C)C(=O)N[C@@H](CCCNC(=N)N)C(=O)N[C@@H](CCCNC(=N)N)C(=O)N[C@@H](CCCNC(=N)N)C(=O)N[C@@H](CCCNC(=N)N)C(=O)NCCCCCC(=O)NCCCCC(NC(=O)CCCCCNC(=O)[C@H](CCCNC(=N)N)NC(=O)[C@H](CCCNC(=N)N)NC(=O)[C@H](CCCNC(=N)N)NC(=O)[C@H](CCCNC(=N)N)NC(=O)[C@H](C)NC(=O)[C@H](Cc1ccccc1)NC(=O)[C@H](CC(=O)O)NC(=O)[C@@H](NC(=O)[C@H](CCCCN)NC(=O)[C@H](CC(=O)O)NC(=O)[C@H](CCCNC(=N)N)NC(=O)[C@H](CCCNC(=N)N)NC(=O)[C@H](C)NC(=O)[C@@H](N)CCSC)[C@@H](C)O)C(=O)NCCCCC(NC(=O)C(CCCCNC(=O)CCCCCNC(=O)[C@H](CCCNC(=N)N)NC(=O)[C@H](CCCNC(=N)N)NC(=O)[C@H](CCCNC(=N)N)NC(=O)[C@H](CCCNC(=N)N)NC(=O)[C@H](C)NC(=O)[C@H](Cc1ccccc1)NC(=O)[C@H](CC(=O)O)NC(=O)[C@@H](NC(=O)[C@H](CCCCN)NC(=O)[C@H](CC(=O)O)NC(=O)[C@H](CCCNC(=N)N)NC(=O)[C@H](CCCNC(=N)N)NC(=O)[C@H](C)NC(=O)[C@@H](N)CCSC)[C@@H](C)O)NC(=O)CCCCCNC(=O)[C@H](CCCNC(=N)N)NC(=O)[C@H](CCCNC(=N)N)NC(=O)[C@H](CCCNC(=N)N)NC(=O)[C@H](CCCNC(=N)N)NC(=O)[C@H](C)NC(=O)[C@H](Cc1ccccc1)NC(=O)[C@H](CC(=O)O)NC(=O)[C@@H](NC(=O)[C@H](CCCCN)NC(=O)[C@H](CC(=O)O)NC(=O)[C@H](CCCNC(=N)N)NC(=O)[C@H](CCCNC(=N)N)NC(=O)[C@H](C)NC(=O)[C@@H](N)CCSC)[C@@H](C)O)C(N)=O)[C@@H](C)O (some centres unmarked)	–	–	C57BL/6 mouse female, ovary	dose not given, 6 h	relative to: total	mean tissue distribution	0.3%
C[C@@H](Cc1ccsc1)NC(=O)NC[C@H](Cc1ccc(O)cc1)N(C)C	D(3) dopamine receptor (DRD3, Homo sapiens, UniProt P35462)	cell-free assay	–	–	–	Ki	> 50 µM
CCCCCCCCCCCCCCCC(=O)N[C@@H](CCC(=O)NCCOCCOCCC(=O)NCCOCCOCCC(=O)NCCCC[C@H](NC(=O)[C@H](CC(=O)O)NC(=O)[C@H](CC(C)C)NC(=O)[C@H](Cc1ccc(O)cc1)NC(=O)[C@H](CCCCN)NC(=O)[C@H](CO)NC(=O)[C@H](Cc1ccc(O)cc1)NC(=O)[C@H](CC(=O)O)NC(=O)[C@H](CO)NC(=O)[C@@H](NC(=O)[C@H](Cc1ccccc1)NC(=O)[C@@H](NC(=O)CNC(=O)[C@H](CCC(N)=O)NC(=O)[C@@H](CO)NC(=O)[C@@H](N)Cc1c[nH]cn1)[C@@H](C)O)[C@@H](C)O)C(=O)N[C@@H](CCCNC(=N)N)C(=O)N[C@@H](CCCNC(=N)N)C(=O)N[C@@H](C)C(=O)N[C@@H](CCC(N)=O)C(=O)N[C@@H](CC(=O)O)C(=O)N[C@@H](Cc1ccccc1)C(=O)N[C@H](C(=O)N[C@@H](CCC(N)=O)C(=O)N[C@@H](Cc1c[nH]c2ccccc12)C(=O)N[C@@H](CC(C)C)C(=O)N[C@@H](CC(C)C)C(=O)N[C@@H](CC(N)=O)C(=O)N[C@H](C(=O)NCC(=O)NCC(=O)N1CCC[C@H]1C(=O)N[C@@H](CO)C(=O)N[C@@H](CO)C(=O)NCC(=O)N[C@@H](C)C(=O)N1CCC[C@H]1C(=O)N1CCC[C@H]1C(=O)N1CCC[C@H]1C(=O)N[C@@H](CO)C(N)=O)[C@@H](C)O)C(C)C)C(=O)O	–	–	rhesus monkey, female, plasma	subcutaneous, 300 µg/kg, day 1, toxicokinetics, mean	–	AUC(0-t)	4440 ng·h/mL
CC(C)[C@@H]1NC(=O)CNC(=O)[C@H](CC(N)=O)NC(=O)[C@H](CCCNC(=N)N)NC(=O)[C@H](Cc2ccc(O)cc2)NC(=O)[C@H](C(C)C)NC(=O)[C@@H](NC(=O)[C@@H](NC(=O)[C@H](CC(N)=O)NC(=O)[C@H](Cc2c[nH]c3ccccc23)NC(=O)[C@H](C)NC(=O)[C@H](Cc2ccccc2)NC(=O)CNC(=O)[C@H](CCCCN)NC(=O)[C@H](Cc2ccccc2)NC(=O)[C@H](Cc2ccccc2)NC(=O)[C@H](CCCCN)NC(=O)OCC2c3ccccc3-c3ccccc32)C(C)C)CSSC[C@@H](C(=O)N[C@@H](Cc2c[nH]cn2)C(=O)N[C@@H](CCCNC(=N)N)C(=O)N[C@@H](CCCNC(=N)N)C(=O)N[C@@H](C)C(=O)N[C@@H](CC(N)=O)C(N)=O)NC(=O)[C@H](C(C)C)NC(=O)[C@H](CCCNC(=N)N)NC1=O	–	–	ICR mouse, blood	intramammary, 5 mg/kg, day 5, 3 d dosing	–	AST	26 ± 2.08 IU/L
CN1Cc2cc(Cl)ccc2-n2c(nnc2C2CCN(c3cccc([18F])n3)CC2)C1	–	–	C57BL/6 mouse male, liver	intravenous, dose not given, 5 min, with: blocking agent 10 mg/kg	–	tissue uptake	16.4 ± 5.71 %ID/g
COCC12CCC(OC)C34C5CC6(O)C(OC)C(O)C(O)(C5C6OC(=O)c5ccccc5)C(C(OC)C13)C4N(C)C2 (centres unmarked)	–	–	Sprague-Dawley rat, plasma	oral, dose not given, in PCW extract	–	Tmax	45 min
CC(CCC(=O)NCC(=O)O)C1CCC2C3C(O)CC4CC(OC5OC(C(=O)O)C(O)C(O)C5O)CCC4(C)C3CCC12C (centres unmarked)	–	–	women, C/C genotype, plasma	dose not given, geometric mean	–	glucuronide to parent ratio	0.41
CC[C@H](C)[C@H](NC(=O)[C@H](CCCCN)NC(=O)CNC(=O)[C@H](CC(C)C)NC(=O)[C@H](Cc1ccccc1)NC(=O)[C@H](CCCCN)NC(=O)[C@H](CO)NC(=O)[C@H](Cc1ccccc1)NC(=O)[C@H](Cc1c[nH]c2ccccc12)NC(=O)[C@H](CCC(N)=O)NC(=O)[C@@H](NC(=O)[C@H](Cc1ccccc1)NC(=O)CCCCCNC(=O)CN1CCN(CC(=O)O)CCN(CC(=O)O)CCN(CC(=O)O)CC1)C(C)C)C(=O)N[C@@H](CCC(=O)O)C(=O)N1CCC[C@H]1C(=O)N[C@@H](CC(=O)O)C(=O)N[C@H](C(=O)N[C@@H](CO)C(=O)N[C@@H](CCC(N)=O)C(=O)N[C@H](C(=O)N[C@@H](CCC(N)=O)C(=O)N[C@@H](CC(=O)O)C(=O)N1CCC[C@H]1C(=O)N[C@@H](CC(N)=O)C(=O)N[C@@H](CC(=O)O)C(=O)N[C@@H](CCC(N)=O)C(=O)N[C@@H](Cc1ccc(O)cc1)C(=O)N[C@@H](CCC(=O)O)C(=O)N1CCC[C@H]1C(=O)N[C@@H](Cc1ccccc1)C(=O)O)C(C)C)C(C)C [copper-64 labelled]	–	–	BALB/c mice, male, CT26 tumour-bearing, kidneys	2 h, vehicle-treated	–	tissue uptake	34.5 ± 4.9 %ID/g
O=C(O)CC[C@H](NC(=O)[C@H](CCC(=O)O)NC(=O)[C@H](CCC(=O)O)NC(=O)[C@H](CCC(=O)O)NC(=O)[C@H](CCC(=O)O)NC(=O)CNC(=O)[C@H](CCC(=O)O)NC(=O)CNC(=O)[C@H](CCC(=O)O)NC(=O)[C@@H](Cc1ccccc1)NC(=O)[C@@H](Cc1ccccc1)NC(=O)Cc1ccc2ccccc2c1)C(=O)O	–	TEM	aqueous solution	500 µM, pH 9	–	nanoparticle diameter	14 ± 2 nm
CC(C)NCCCn1c(Sc2cc3c(cc2I)OCO3)nc2c(N)ncnc21	–	LC-MS/MS	patients with advanced solid tumours, plasma	above 180 mg/m^2, 24 h	–	plasma concentration	800 nM
C#Cc1c(F)ccc2cc(O)cc(-c3ncc4c(N5CC6CCC(C5)N6C(=O)OC(C)OC(=O)C5CCCC5)nc(OC[C@@]56CCCN5C[C@H](F)C6)nc4c3F)c12 (some centres unmarked)	–	refers to: prodrug	mouse whole blood	1 µM	–	t1/2	3.25 min
C/C(=N\OCCCN1CCCCC1)c1ccc(C(F)(F)F)cc1	–	–	rhesus monkey	dose not given, after dosing	–	QT interval	160 ms
CC(C)(C)C(=O)OCOP(=O)(OCOC(=O)C(C)(C)C)C1CCCN(O)C1=O (centres unmarked)	BT-549	–	–	–	–	CC50	> 100 µM
CCCC[C@H](NC(=O)CN1CCC(NC(=O)CN2CCN(CC(N)=O)CCN(CC(N)=O)CCN(CC(N)=O)CC2)CC1)C(=O)N[C@H]1CC(=O)NCCCC[C@@H](C(N)=O)NC(=O)[C@H](Cc2c[nH]c3ccccc23)NC(=O)[C@H](CCCNC(=N)N)NC(=O)[C@@H](Cc2ccccc2)NC(=O)[C@H](Cc2c[nH]cn2)NC1=O [lead-212 labelled]	–	–	male C57BL/6J mice, B16-F10 tumour, bone	intravenous, 20 pmol, 2 h, ex vivo	–	tissue uptake	0.79 ± 0.05 %IA/g

Repeated from above:
Structure (SMILES)	target or system	assay	system	conditions	scale	endpoint	value
CC[C@H](C)[C@H](NC(=O)[C@H](CCCCN)NC(=O)CNC(=O)[C@H](CC(C)C)NC(=O)[C@H](Cc1ccccc1)NC(=O)[C@H](CCCCN)NC(=O)[C@H](CO)NC(=O)[C@H](Cc1ccccc1)NC(=O)[C@H](Cc1c[nH]c2ccccc12)NC(=O)[C@H](CCC(N)=O)NC(=O)[C@@H](NC(=O)[C@H](Cc1ccccc1)NC(=O)CCCCCNC(=O)CN1CCN(CC(=O)O)CCN(CC(=O)O)CCN(CC(=O)O)CC1)C(C)C)C(=O)N[C@@H](CCC(=O)O)C(=O)N1CCC[C@H]1C(=O)N[C@@H](CC(=O)O)C(=O)N[C@H](C(=O)N[C@@H](CO)C(=O)N[C@@H](CCC(N)=O)C(=O)N[C@H](C(=O)N[C@@H](CCC(N)=O)C(=O)N[C@@H](CC(=O)O)C(=O)N1CCC[C@H]1C(=O)N[C@@H](CC(N)=O)C(=O)N[C@@H](CC(=O)O)C(=O)N[C@@H](CCC(N)=O)C(=O)N[C@@H](Cc1ccc(O)cc1)C(=O)N[C@@H](CCC(=O)O)C(=O)N1CCC[C@H]1C(=O)N[C@@H](Cc1ccccc1)C(=O)O)C(C)C)C(C)C [copper-64 labelled]	–	–	BALB/c mice, male, CT26 tumour-bearing, kidneys	2 h, vehicle-treated	–	tissue uptake	34.5 ± 4.9 %ID/g
